Measurements pooled from the literature.
Each line is one published result; not all experiments were run side by side. ± marks the error that the study gave. ≈ marks a conversion by molar mass, not a printed value.

Compound | target or system | test | test system | setting | how to read | quantity | result
C=CC(=O)N1[C@H](c2ccc3c(c2)OCO3)c2[nH]c3ccccc3c2C[C@@H]1C(=O)N1CCN(C)CC1 | human cyclin E1 N112C-3xFLAG:CDK2 | co-IP with TMT proteomics, refers to: TRIM21 | – | concentration not given, P19474 | relative to: wild type DMSO | relative co-enrichment | 90%
CN1CCCNC(=O)c2cccc(c2)C(=O)NCCCN(C)CCCNc2cccc3c2C(=O)c2cccc(c2C3=O)NCCC1 | SAS | RNA-Seq, refers to: BTK mRNA | – | 1 µM, 6 h | relative to: untreated cells | log2 fold change | 4.66
CC[n+]1cccc2cc(/C=N/NC(=O)c3ccc4ccc5ccc(C(=O)N/N=C/c6ccc7c(ccc[n+]7CC)c6)nc5c4n3)ccc21 | telomeric G4 DNA hybrid-2 | FRET melting | – | 1 µM, DNA 0.2 µM | – | ΔTm | 36 ± 1.1 °C
COC1CN([C@H]2CC[C@H]([C@@]3(C)Oc4c(Cl)cc(C(=O)NCc5c(SC)cc(C)[nH]c5=O)c(C)c4O3)CC2)C1 | – | RNA-seq, refers to: METTL27 mouse homolog | mouse, HT-1376 xenograft, whole blood | dose not given | relative to: vehicle | log2 fold change | 1.62
C=CC(=O)Nc1cccc(Cn2ncc3cnc(Nc4cnn(CCOC)c4)nc32)c1 | human ABL1(Q252H)-phosphorylated | KINOMEscan | – | 100 nM | relative to: control | binding | 8.9%
CC(=O)[O-].O.O.O.O.[Co+2].[O-]c1ccc(Br)cc1C=NCCN1CCOCC1 | – | hydroxyl radical scavenging | – | 120 µM | – | inhibition | 31.2%
N=C(N)NCCC[C@@H]1NC(=O)[C@H](CCCNC(=N)N)NC(=O)[C@@H](CCCNC(=N)N)NC(=O)[C@@H](CCCNC(=N)N)NC(=O)[C@@H](C(c2ccccc2)c2ccccc2)NC(=O)[C@@H](Cc2c[nH]c3ccccc23)NC(=O)[C@@H](C(c2ccccc2)c2ccccc2)NC1=O | Blastomyces dermatitidis | – | BD-1 | – | – | MIC | 2 µg/mL (≈ 1.59 µM)
CC[n+]1cccc2cc(/C=N/NC(=O)c3cccc(C(=O)N/N=C/c4ccc5c(ccc[n+]5CC)c4)c3)ccc21 | telomeric G4 DNA hybrid-2 | FRET melting | – | 1 µM, DNA 0.2 µM | – | ΔTm | 8 ± 0.3 °C
Nc1ncc(-c2cc(-c3cnn(CC(F)(F)F)c3)ncc2F)nc1C(=O)NC1CNCC(F)C1 (stereo not drawn) | BTK | KINOMEscan | – | 1 µM | relative to: DMSO control | remaining binding | 94%
C[n+]1ccc(/C=N/NC(=O)C(=O)N/N=C/c2cc[n+](C)cc2)cc1 | telomeric G4 DNA hybrid-2 | FRET melting | – | 1 µM, DNA 0.2 µM, together with: duplex DNA competitor 10 µM | – | ΔTm | 1.6 ± 0.7 °C
CC(C)(C)c1cc(-c2ccc3cccnc3n2)nc(-c2ccc3cccnc3n2)c1.COc1ccncc1.[Cl-].[Cl-].[Ru+2].c1ccc2cc3nc4c5cccnc5c5ncccc5c4nc3cc2c1 | B16-F10 | resazurin | – | together with: light 523 nm, 20 mW, 100 J/cm2 | – | EC50 | 1470 nM
O=C(N/N=C/c1ccc(C[n+]2ccccc2)cc1)c1cccc(C(=O)N/N=C/c2ccc(C[n+]3ccccc3)cc2)n1 | telomeric G4 DNA hybrid-2 | FRET melting | – | 1 µM, DNA 0.2 µM | – | ΔTm | 11.9 ± 3 °C
Cc1ncsc1-c1ccc(C(C)NC(=O)C2CC(O)CN2C(=O)C(NC(=O)CCCCCCCCCCN2CCCC(Nc3ncc(Cl)c(Nc4ccccc4S(=O)(=O)C(C)C)n3)C2)C(C)(C)C)cc1 (stereo not drawn) | 22Rv1 | RNA-seq, refers to: MED13 mRNA | – | concentration not given | relative to: DMSO | log2 fold change | -1.06
C[n+]1ccc(/C=N/NC(=O)N/N=C/c2cc[n+](C)cc2)cc1 | telomeric G4 DNA hybrid-2 | FRET melting | – | 1 µM, DNA 0.2 µM, together with: duplex DNA competitor 10 µM | – | ΔTm | 1.6 ± 0.2 °C
CNS(=O)(=O)Nc1nccc(Cc2c(C)c3ccc(Oc4ncccc4F)cc3oc2=O)c1F | NCI-H650 | cell viability | – | 7 days | – | IC50 | > 1000 nM

Repeated from above:
Compound | target or system | test | test system | setting | how to read | quantity | result
C=CC(=O)N1[C@H](c2ccc3c(c2)OCO3)c2[nH]c3ccccc3c2C[C@@H]1C(=O)N1CCN(C)CC1 | human cyclin E1 N112C-3xFLAG:CDK2 | co-IP with TMT proteomics, refers to: TRIM21 | – | concentration not given, P19474 | relative to: wild type DMSO | relative co-enrichment | 90%
CN1CCCNC(=O)c2cccc(c2)C(=O)NCCCN(C)CCCNc2cccc3c2C(=O)c2cccc(c2C3=O)NCCC1 | SAS | RNA-Seq, refers to: BTK mRNA | – | 1 µM, 6 h | relative to: untreated cells | log2 fold change | 4.66
